Measurements pooled from the literature.
Each line is one published result; not all experiments were run side by side. “And” joins repeats or separate records; there may be more than shown. ± marks the error that the study gave. Values after ≈ are worked out from the molar mass of the structure shown.

Structure (SMILES) | assay | test system | setting | scale | measurement | result
COC(=O)c1ccccc1C1=c2cc3c4c(c2Oc2c1ccc1cccc(O)c21)CCC[N+]=4CCC3.[Cl-] |  | 12.5 mM aqueous NaOH | pH 12.1, 10% DMSO |  | molar extinction coefficient | 14500 M⁻¹ cm⁻¹
CC(C)(Oc1ccc(CCNC(=O)c2ccc(Cl)cc2)cc1)C(=O)O | shake-flask | Cremophor ELP | 37 °C, water up to 0.5% w/w |  | thermodynamic solubility | 14.6 ± 1.81 mg/g
CCC(C)n1ncn(-c2ccc(N3CCN(c4ccc(OCC5COC(Cn6cncn6)(c6ccc(Cl)cc6Cl)O5)cc4)CC3)cc2)c1=O (centres unmarked) |  | human K3EDTA plasma | -80 °C |  | storage stability | 387 days
CNC(=O)c1ccc(-c2cnc3ncc(Cc4ccc5ncccc5c4)n3n2)cc1F | CTCAE v4.0, any causality | human cancer patients | oral, dose not given, dose escalation |  | creatinine increase incidence (all grades) | 21%
CC(C)(C(=O)N1CCOc2c(C#N)cncc2C1)C(F)F | item: Gastrointestinal disorders | human | oral, 20 mg once daily, 14 days, multiple ascending dose |  | subjects with adverse event | 0%
N#Cc1ccc2c(c1)[C@H]1CCCN(C(=O)c3ccc4[nH]cnc4c3)[C@H]1C2 |  | human males | 240 mg, end of trial |  | DHEA-S level | 6.7 µmol/L
Cn1cc(Nc2nccc(-c3ccc4c(c3)CN(C3COC3)CC[C@H]4NC(=O)c3cn(C(C)(C)C)nn3)n2)cn1 |  | human, whole blood | 150 mg twice daily, day 7 | reference: pre-dose baseline | class-switched memory B cell change | 104%
CNCc1ccc(-c2[nH]c3cc(F)cc4c3c2CCNC4=O)cc1 |  | human patients | oral, 600 mg twice daily, grade 2 |  | nausea incidence | 11.5%
CC(C)c1nc(N(C)S(C)(=O)=O)nc(-c2ccc(F)cc2)c1/C=C/[C@@H](O)C[C@@H](O)CC(=O)O | item: Diarrhea | human | oral, 10 mg |  | participants with TEAE | 6.9%
Oc1ccc(/C=C/c2cc(O)cc(O)c2)cc1 |  | rat, azoxymethane-injected, blood at sacrifice | 100 mg/kg |  | lactate dehydrogenase | 410 IU/L and 469 IU/L and 562 IU/L
CCN(CC)Cc1ccc2cc(COC(=O)Nc3ccc(C(=O)NO)cc3)ccc2c1 |  | rat plasma | 3200 ng/mL, 4 h, 10 °C, autosampler | reference: nominal concentration | stability relative error | 101%
COc1ccc2c(c1)CN(C(=O)CCN1CCC(Cc3ccccc3)CC1)CC[S@@+]2[O-] | telemetry | conscious male beagle dogs | intravenous, 8 mg/kg, 2 h |  | QTc interval | 260 ± 11 ms
C[C@@]1(c2cc(NC(=O)c3ccc(C#N)cn3)ccc2F)C=CSC(N)=N1 |  | elderly humans, both sexes, plasma | oral, 10 mg single dose |  | dose-normalised AUC(0-inf) | 104 ng·h/mL
CCC[C@H]1CC[C@H](c2ccc(C#N)cc2)CC1 |  | Sprague-Dawley rat, female, placenta | 1000 ng/mL in perfusate, 50 (unit not given), middle dose, mixture of 21 LCMs |  | median placental accumulation | 170 ng/g
COc1cccc(-c2n[nH]c(SCc3ccccn3)n2)c1OC |  | Sprague-Dawley rats, both sexes | oral dietary, 30 mg/kg/day, day 90, 0 h |  | plasma concentration | 780 ng/mL
Cn1cc(-c2cn3nccc3c(-c3cnn([C@]4(CC#N)C[C@@H](C#N)C4)c3)n2)cn1 |  | healthy human, plasma | 400 mg once daily, day 10, multiple dose, fed, geometric mean |  | MRT | 9.6 h
CCN1CCN(Cc2ccc(Nc3ncc(F)c(-c4cc(F)c5nc6n(c5c4)[C@H](C)CCC6)n3)nc2)CC1 |  | human, plasma | 50 mg single dose, mean |  | CL/F | 34.2 L/h
CC(F)(F)c1nc2nc(CO)cc(Nc3ccc(S(F)(F)(F)(F)F)cc3)n2n1 | LC-MS/MS | malaria patients, plasma | oral, 600 mg of parent drug |  | AUC(0-t), metabolite | 148000 ng·h/mL
CCc1cc(C(=O)NC)c2nccc(N3CCc4c(cc(Cn5ccnc5)cc4-c4cn(C)nc4C(F)(F)F)C3=O)c2c1 |  | Sprague Dawley rats | oral, 100 mg/kg twice daily, 7 days | reference: vehicle | serum ALT change | -8.8%
CC(C)[C@@H](CN1CC[C@@](C)(c2cccc(O)c2)[C@@H](C)C1)NC(=O)[C@H]1Cc2ccc(O)cc2CN1 |  | Sprague-Dawley rat, plasma | intraperitoneal, 10 mg/kg |  | AUClast | 4410 ng·h/mL
CCN1/C(=C/C(C)=O)Sc2ccc(F)cc21 |  | cynomolgus monkey | oral, 100 mg/kg, 4 h post-dose |  | heart rate | 100 ± 23 beats/min

Structure (SMILES) | assay | test system | setting | scale | measurement | result
CN1C(=O)[C@@H](NC(=O)c2nnc(Cc3ccccc3)[nH]2)COc2cccnc21 | phase I single ascending dose | human, male and female | oral, 400 mg, fasted |  | participants with any TEAE | 33.3%
O=C(O)CCC(=O)O.[2H]C([2H])([2H])Oc1cc(C)c2[nH]ccc2c1CN1CC[C@@H](C2CC2)C[C@H]1c1ccc(C(=O)O)cc1 | multiple ascending dose | healthy Chinese subjects | 300 mg once daily |  | subjects with elevated bilirubin TEAE | 0%
CNC(=O)c1ccc(-c2nn3c(Cc4ccc5ncccc5c4)cnc3[nH]c2=O)cc1F |  | human plasma | -70 °C |  | storage stability | ≥ 674 days
C[C@@H](Nc1cc(F)cc(F)c1)c1cc(C(=O)N(C)C)cc2c(=O)cc(N3CCOCC3)oc12 | item: Pain | advanced solid tumour patients | oral, dose not given, dose finding |  | related serious adverse events | 0%
Cc1cc(Nc2cc3ncccc3c(N[C@@H]3C[C@H]4CC[C@@H](C3)N4CCC#N)n2)n[nH]1 |  | human, plasma | 20 mg, day 14, geometric mean |  | AUC(0-4) | 0.525 ng·h/mL
C=C1C(=O)O[C@H]2[C@H]1CC/C(COC(=O)n1ccnc1)=C\CC[C@@]1(C)O[C@@H]21 |  | BALB/c mice male, blood | oral, 757 µmol/kg |  | time to appearance in blood | ≤ 15 min
COc1c(C)c2c(c(O[C@@H]3O[C@H](C(=O)O)[C@@H](O)[C@H](O)[C@H]3O)c1C/C=C(\C)CCC(=O)O)C(=O)OC2 |  | healthy humans | oral, dose not given, with: isavuconazole co-administration | reference: with isavuconazole over MMF alone | AUC0–∞ geometric mean ratio | 76%
OC[C@H]1O[C@@H](c2ccc(Cl)c(Cc3ccc(O[C@H]4CCOC4)cc3)c2)[C@H](O)[C@@H](O)[C@@H]1O |  | Japanese type 1 diabetes patients, blood | 2.5 mg, day 28 | reference: baseline | change in Non-HDL cholesterol | 3.23 mg/dL
CCCC1CCC(c2ccc(OCC)c(F)c2F)CC1 (centres unmarked) |  | rat, placenta | 1000 ng/mL in perfusate, middle dose, mixture of 21 LCMs |  | median placental accumulation | 12 ng/g
CC(=O)N[C@@H](CC(C)C)C(=O)N[C@H](C(=O)N[C@@H](Cc1ccccc1)C(=O)N[C@@]1(C)CCCC=CCCC[C@@](C)(C(=O)N[C@@H](CCC(N)=O)C(=O)N[C@@H](CC(C)C)C(=O)N[C@H](C(=O)N[C@@H](CO)C(N)=O)[C@@H](C)O)NC(=O)[C@H](Cc2c[nH]c3ccccc23)NC(=O)[C@H](Cc2ccc(O)cc2)NC(=O)[C@H](CCC(=O)O)NC1=O)[C@@H](C)O | circular dichroism | 10 mM phosphate buffer | 50 µM, pH 7.4 |  | helicity | 62%
CCN1CCN(Cc2ccc(NC(=O)c3ccc(C)c(NC(=O)c4cncc(-c5cccs5)c4)c3)cc2C(F)(F)F)CC1 | LC-MS/MS | C57BL/6 mouse, plasma | intraperitoneal, 15 mg/kg single dose, 1 h |  | plasma concentration | 808 ng/mL and 453 ng/mL and 484 ng/mL
O=C(Nc1nc2cccc(-c3ccc(CN4CCS(=O)(=O)CC4)cc3)n2n1)C1CC1 | item: constipation | human rheumatoid arthritis patients | oral, 30 mg once daily, 4 weeks, regardless of relatedness |  | treatment-emergent adverse events | 0%
Cc1cc(NC2CCN(C(=O)OC3CCN(C(=O)/C=C/CN(C)C)C3)CC2)n2ncc(C(C)C)c2n1 (centres unmarked) |  | patients with advanced solid tumours | dose not given, QD arm, any grade |  | patients with Hypotension | 7%
CCn1c(=O)c(-c2cc(NC(=O)Nc3ccccc3)c(F)cc2Br)cc2cnc(NC)cc21 | item: lipase increased | healthy human, matched to moderate hepatic impairment | oral, 50 mg single dose |  | participants with drug-related TEAE | 12.5%
O=C(Cc1ccccc1[N+](=O)[O-])Nc1ccccc1C(=O)N1CCOCC1 |  | aqueous buffer | pH 7.4 |  | thermodynamic solubility | 98.9 µM (≈ 36.5 µg/mL)
c1ccc(-c2nc(N3CCc4nc[nH]c4C3)c3ccccc3n2)nc1 |  | Japanese Pharmacopoeia disintegration test solution 2 | pH 6.8 |  | kinetic solubility | 38 µg/mL (≈ 116 µM)
Cc1nc2cccc(OCC(C)(C)C(=O)NC(C)C)c2c(N)c1C(=O)O |  | Swiss albino CD-1 mouse | oral, 1000 mg/kg, 24 h |  | mean body weight change | -0.2 ± 0.4 g
NC[C@H](NC(=O)c1ccc(C#CC#Cc2ccccc2)cc1)C(=O)NO |  | aqueous buffer | pH 7.4 |  | thermodynamic solubility | < 7.14 µM
Cn1cc(Nc2nc(N)nc(-c3cccc(-n4ccc5cc(C6CC6)cc(F)c5c4=O)c3CO)n2)cn1 |  | healthy humans, fed | oral tablet, 150 mg twice daily (multiple dose), 14 (unit not given) | reference: subjects | nausea incidence | 0%
NC(=O)N1c2ccccc2CC(O)c2ccccc21 (centres unmarked) | population PK modelling | human patients, plasma | weight-scaled, no back-conversion |  | clearance | 2.75 L/h
